{"data": "Assay results gathered from unrelated publications", "note": "Each numbered part is a random draw from the data of one study; scales do not carry over between parts. pEC50: −log10 of the molar value.", "chain of UniProt P50613 (whole entry, looked up)": "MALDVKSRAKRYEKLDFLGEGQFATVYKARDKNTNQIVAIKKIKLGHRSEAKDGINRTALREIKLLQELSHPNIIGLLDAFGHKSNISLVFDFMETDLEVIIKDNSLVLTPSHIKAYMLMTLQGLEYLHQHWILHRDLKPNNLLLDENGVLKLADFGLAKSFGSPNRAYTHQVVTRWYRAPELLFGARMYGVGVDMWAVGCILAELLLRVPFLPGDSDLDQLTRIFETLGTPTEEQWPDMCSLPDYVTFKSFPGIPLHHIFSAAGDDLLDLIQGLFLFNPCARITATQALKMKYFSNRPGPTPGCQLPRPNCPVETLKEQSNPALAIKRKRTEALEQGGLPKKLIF", "chain of UniProt Q12851 (whole entry, looked up)": "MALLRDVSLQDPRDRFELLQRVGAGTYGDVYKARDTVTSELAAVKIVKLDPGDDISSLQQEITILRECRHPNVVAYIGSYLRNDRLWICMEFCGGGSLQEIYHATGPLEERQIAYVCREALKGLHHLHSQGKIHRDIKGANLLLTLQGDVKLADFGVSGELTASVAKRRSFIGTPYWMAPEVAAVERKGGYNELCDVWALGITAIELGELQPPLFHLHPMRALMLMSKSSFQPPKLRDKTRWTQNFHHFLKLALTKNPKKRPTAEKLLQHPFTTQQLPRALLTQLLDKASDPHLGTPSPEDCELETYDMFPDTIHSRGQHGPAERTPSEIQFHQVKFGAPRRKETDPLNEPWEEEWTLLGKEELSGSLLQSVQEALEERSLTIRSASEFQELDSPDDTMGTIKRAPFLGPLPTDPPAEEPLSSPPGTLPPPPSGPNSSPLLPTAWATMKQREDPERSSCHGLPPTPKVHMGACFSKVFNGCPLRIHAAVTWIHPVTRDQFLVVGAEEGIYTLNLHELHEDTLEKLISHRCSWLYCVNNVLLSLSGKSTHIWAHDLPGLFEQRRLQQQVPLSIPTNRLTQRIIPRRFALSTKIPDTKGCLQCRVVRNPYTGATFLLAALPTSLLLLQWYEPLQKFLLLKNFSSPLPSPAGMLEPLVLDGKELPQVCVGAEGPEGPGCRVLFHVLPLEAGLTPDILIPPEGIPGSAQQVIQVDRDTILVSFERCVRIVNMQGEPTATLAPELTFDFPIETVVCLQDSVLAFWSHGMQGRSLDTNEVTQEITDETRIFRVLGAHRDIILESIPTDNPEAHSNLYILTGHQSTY", "chain of UniProt P07333 (whole entry, looked up)": "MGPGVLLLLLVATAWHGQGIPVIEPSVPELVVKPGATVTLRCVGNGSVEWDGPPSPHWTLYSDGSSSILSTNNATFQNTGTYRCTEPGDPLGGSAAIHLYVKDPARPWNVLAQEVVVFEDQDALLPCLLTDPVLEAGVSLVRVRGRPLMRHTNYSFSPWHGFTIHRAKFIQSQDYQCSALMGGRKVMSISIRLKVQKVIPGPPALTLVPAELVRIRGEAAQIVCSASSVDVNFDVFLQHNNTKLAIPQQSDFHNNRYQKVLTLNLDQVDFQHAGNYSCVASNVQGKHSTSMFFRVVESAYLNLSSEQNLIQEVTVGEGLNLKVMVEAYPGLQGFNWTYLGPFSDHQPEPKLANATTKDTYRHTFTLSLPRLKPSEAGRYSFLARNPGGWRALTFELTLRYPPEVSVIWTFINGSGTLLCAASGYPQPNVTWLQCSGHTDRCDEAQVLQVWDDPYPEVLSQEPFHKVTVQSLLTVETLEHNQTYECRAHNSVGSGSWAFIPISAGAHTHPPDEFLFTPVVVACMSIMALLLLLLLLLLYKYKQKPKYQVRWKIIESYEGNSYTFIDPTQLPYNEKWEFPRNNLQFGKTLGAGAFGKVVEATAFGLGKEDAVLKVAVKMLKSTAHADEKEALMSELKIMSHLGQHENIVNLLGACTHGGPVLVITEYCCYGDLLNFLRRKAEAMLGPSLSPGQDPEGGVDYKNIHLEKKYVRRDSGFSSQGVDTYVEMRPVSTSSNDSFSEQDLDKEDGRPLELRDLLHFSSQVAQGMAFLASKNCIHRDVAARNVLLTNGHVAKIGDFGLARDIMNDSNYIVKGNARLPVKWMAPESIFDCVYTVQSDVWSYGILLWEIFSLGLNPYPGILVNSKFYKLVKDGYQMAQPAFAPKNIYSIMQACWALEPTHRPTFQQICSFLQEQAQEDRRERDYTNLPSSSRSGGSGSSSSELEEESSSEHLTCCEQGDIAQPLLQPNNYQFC", "chain of UniProt O14976 (whole entry, looked up)": "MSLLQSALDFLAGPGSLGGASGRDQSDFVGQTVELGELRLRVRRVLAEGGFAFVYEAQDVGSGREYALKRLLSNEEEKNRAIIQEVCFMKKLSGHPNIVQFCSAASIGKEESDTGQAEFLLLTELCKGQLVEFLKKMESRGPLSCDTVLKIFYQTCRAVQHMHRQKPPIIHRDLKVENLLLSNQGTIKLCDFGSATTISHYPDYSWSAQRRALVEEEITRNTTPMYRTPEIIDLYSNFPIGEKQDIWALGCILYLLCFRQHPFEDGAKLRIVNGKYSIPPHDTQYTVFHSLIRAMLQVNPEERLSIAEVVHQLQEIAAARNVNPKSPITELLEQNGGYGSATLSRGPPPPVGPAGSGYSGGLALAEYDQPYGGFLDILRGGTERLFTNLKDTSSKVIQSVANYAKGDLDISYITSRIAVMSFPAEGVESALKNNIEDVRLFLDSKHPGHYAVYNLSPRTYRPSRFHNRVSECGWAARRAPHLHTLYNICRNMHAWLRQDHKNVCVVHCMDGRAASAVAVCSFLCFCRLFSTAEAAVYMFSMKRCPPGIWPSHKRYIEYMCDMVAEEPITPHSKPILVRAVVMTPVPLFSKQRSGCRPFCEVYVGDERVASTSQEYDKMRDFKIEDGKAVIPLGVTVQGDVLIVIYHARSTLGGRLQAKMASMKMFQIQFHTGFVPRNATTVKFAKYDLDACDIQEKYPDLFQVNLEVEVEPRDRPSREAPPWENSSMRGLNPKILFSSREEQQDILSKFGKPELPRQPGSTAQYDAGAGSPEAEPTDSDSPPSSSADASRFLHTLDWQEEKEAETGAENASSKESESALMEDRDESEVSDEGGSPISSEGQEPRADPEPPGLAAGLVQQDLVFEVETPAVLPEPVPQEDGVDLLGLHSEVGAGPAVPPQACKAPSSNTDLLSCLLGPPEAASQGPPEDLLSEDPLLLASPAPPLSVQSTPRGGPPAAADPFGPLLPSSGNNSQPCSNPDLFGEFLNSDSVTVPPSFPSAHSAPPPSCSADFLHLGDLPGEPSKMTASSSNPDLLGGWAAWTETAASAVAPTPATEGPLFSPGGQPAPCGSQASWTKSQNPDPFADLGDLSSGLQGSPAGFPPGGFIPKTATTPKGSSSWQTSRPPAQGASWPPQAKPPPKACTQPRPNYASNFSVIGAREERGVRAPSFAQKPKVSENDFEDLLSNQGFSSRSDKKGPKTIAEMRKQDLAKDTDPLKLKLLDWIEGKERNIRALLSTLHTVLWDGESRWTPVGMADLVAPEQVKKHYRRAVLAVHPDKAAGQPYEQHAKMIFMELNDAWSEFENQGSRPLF", "chain of UniProt P48736 (whole entry, looked up)": "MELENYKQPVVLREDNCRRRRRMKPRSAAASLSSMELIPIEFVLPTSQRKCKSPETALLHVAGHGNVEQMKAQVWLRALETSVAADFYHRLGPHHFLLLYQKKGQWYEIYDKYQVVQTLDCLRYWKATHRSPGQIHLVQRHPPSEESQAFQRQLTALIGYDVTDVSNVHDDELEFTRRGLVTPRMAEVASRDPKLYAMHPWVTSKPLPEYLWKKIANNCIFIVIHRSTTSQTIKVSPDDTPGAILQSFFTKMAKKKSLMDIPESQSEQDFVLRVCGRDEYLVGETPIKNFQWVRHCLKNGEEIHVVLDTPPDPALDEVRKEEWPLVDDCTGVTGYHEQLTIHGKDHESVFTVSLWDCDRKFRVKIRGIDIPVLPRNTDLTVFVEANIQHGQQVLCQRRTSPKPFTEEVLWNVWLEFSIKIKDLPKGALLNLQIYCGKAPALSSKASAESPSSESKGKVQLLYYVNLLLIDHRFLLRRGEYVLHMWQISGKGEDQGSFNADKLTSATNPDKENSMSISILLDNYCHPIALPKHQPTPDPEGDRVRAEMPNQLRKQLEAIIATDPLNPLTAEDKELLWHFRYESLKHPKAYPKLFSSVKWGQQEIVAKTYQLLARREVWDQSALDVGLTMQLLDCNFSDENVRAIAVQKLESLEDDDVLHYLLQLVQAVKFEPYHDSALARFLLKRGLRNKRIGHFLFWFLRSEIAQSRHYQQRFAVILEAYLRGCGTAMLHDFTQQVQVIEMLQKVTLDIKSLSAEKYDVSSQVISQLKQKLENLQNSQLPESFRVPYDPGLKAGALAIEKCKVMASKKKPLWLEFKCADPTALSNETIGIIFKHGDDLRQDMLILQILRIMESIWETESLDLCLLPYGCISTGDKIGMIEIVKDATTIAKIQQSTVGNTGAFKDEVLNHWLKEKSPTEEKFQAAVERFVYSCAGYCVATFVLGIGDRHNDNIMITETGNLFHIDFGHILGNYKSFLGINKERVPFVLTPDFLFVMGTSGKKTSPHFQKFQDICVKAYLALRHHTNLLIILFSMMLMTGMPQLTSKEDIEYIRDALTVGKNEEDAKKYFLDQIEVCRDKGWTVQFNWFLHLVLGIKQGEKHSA", "chain of UniProt P0DMS8 (whole entry, unmodified, looked up)": "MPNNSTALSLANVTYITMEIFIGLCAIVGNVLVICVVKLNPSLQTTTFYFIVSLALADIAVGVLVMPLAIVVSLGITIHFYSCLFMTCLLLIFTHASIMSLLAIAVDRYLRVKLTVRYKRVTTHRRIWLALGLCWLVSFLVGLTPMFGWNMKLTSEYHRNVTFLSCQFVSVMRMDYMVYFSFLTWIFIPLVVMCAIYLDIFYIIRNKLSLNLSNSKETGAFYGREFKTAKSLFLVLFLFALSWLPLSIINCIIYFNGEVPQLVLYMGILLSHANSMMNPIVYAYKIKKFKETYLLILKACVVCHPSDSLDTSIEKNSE"}
{"data": "Set 1", "SMILES": "[2H]c1c([2H])c([C@]2([2H])CCCN2C(=O)C(C)(C)Oc2ccc3cn[nH]c3c2)c([2H])c([2H])c1C([2H])([2H])[2H]", "observed": "binding", "method": "competition with immobilised ligand", "tested at": "1 µM"}
{"target": "CDK7 (Homo sapiens, UniProt P50613)", "remaining binding": "86%"}
{"target": "MAP3K6 (Homo sapiens, UniProt O95382)", "remaining binding": "78%"}
{"target": "GAK (Homo sapiens, UniProt O14976)", "remaining binding": "93%"}
{"target": "GRK2 (Homo sapiens, UniProt P25098)", "remaining binding": "100%"}
{"target": "PIK3CG (Homo sapiens, UniProt P48736)", "remaining binding": "70%"}
{"target": "MTOR (Homo sapiens, UniProt P42345)", "remaining binding": "95%"}
{"target": "MAP4K2 (Homo sapiens, UniProt Q12851)", "remaining binding": "61%"}
{"target": "CSF1R (Homo sapiens, UniProt P07333)", "remaining binding": "95%"}
{"data": "Single results of other studies", "CDK7": "Cyclin-dependent kinase 7 (CDK7, Homo sapiens, UniProt P50613)"}
{"Compound": "COc1cc(-c2cc(=O)c3c(O)cc(O)cc3o2)ccc1O", "target or system": "Helicobacter pylori", "test": "microbial growth, broth dilution", "conditions": "0.24 µg/mL", "endpoint": "inhibition", "result": "6.83%"}
{"Compound": "CN(C)c1ncnc2c1ncn2[C@@H]1O[C@H](CO)[C@@H](O)[C@H]1O", "target or system": "ADORA3 (Homo sapiens, UniProt P0DMS8, M174F)", "test": "G protein activation, agonist", "endpoint": "pEC50", "result": 4.46}
{"Compound": "COc1cccc(-c2n[nH]c(SCc3ccccn3)n2)c1OC", "test system": "female Sprague-Dawley rat, plasma", "conditions": "intravenous, 1 mg/kg, 30 min, single dose", "endpoint": "concentration", "result": "475 ng/mL"}
{"Compound": "O=C(O)c1ccc(O)cc1", "target or system": "Helicobacter pylori", "test": "microbial growth, broth dilution", "conditions": "0.24 µg/mL", "endpoint": "inhibition", "result": "84%"}
{"Compound": "C=CC(=O)N1CCC(COCC(=O)N2CCN(c3nc(-c4cnc(N)nc4C(F)F)nc(N4CCOC[C@@H]4C)n3)CC2)CC1", "target or system": "CDK7", "test": "binding, competition with immobilised ligand", "conditions": "1 µM", "endpoint": "remaining binding", "result": "97%"}
{"Compound": "Nc1ccn([C@@H]2O[C@H](CO)[C@@H](O)C2(F)F)c(=O)n1", "target or system": "HEK293", "test": "cell growth or viability, MTT", "conditions": "0.15625 µg/mL, 24 h", "endpoint": "viability", "result": "91.5%"}
{"Compound": "Cc1cc([C@@H](C)Nc2ccccc2C(=O)O)c2nc(N3CCC(F)(F)CC3)c(C#N)c(=O)n2c1", "target or system": "CDK7", "test": "binding, competition with immobilised ligand", "conditions": "1 µM", "endpoint": "remaining binding", "result": "82%"}
{"Compound": "C1=C/COCc2cc(ccc2OCCN2CCCC2)Nc2nccc(n2)-c2cccc(c2)COC/1", "target or system": "EGFR (Homo sapiens, UniProt P00533, T790M)", "test": "binding", "conditions": "0.1 µM", "endpoint": "remaining binding", "result": "94%"}
